Assay results pooled from the literature.
Numbered parts are unrelated; each lists some results of a single study.

Study 1 — technique: universal PBM; form: double-stranded DNA, one strand shown; matrix: in vitro; concentration: not given; reading: higher = stronger binding
Target: Sal-like protein 4, full length isoform B (SALL4, Homo sapiens, UniProt Q9UJQ4-2, residues 1-616)
Setting: 8-mer, flanks averaged, mean of replicates
| Strand | E-score |
| --- | --- |
| AACTCTTG | -0.0216 |
| AGTTGCGA | 0.0793 |
| CAAGTCTC | -0.161 |
| CCTACGCG | -0.245 |
| CGGCTGAG | -0.288 |
| GAGCAGCC | -0.319 |
| CAGCTGAA | -0.0702 |
| CAGAACTA | 0.109 |
| CACACTCA | 0.174 |
| CCTGACAA | -0.0959 |
| CATAGGCG | -0.0448 |
| GGCTTCAC | -0.034 |
| ACGTGCAC | -0.0299 |
| CAAACCGA | -0.105 |
| AAGTCATT | 0.158 |
| GGCAGTTA | 0.0165 |

Study 2 — technique: RNA Bind-n-Seq; form: RNA; matrix: in vitro; concentration: not given; baseline: input RNA pool; reading: higher = stronger binding
Target: RING finger protein unkempt homolog, zinc fingers 1-6, GST-SBP tag (UNK, Homo sapiens, UniProt Q9C0B0, residues 30-357)
Setting: RNA with constant flanks, human and mouse sites, ends assumed
Constant ends, left off below: GGGAGUUCUACAGUCCGACGAUC … CAACAGAGGAUUGAGCAUCA
Target sequence (chain): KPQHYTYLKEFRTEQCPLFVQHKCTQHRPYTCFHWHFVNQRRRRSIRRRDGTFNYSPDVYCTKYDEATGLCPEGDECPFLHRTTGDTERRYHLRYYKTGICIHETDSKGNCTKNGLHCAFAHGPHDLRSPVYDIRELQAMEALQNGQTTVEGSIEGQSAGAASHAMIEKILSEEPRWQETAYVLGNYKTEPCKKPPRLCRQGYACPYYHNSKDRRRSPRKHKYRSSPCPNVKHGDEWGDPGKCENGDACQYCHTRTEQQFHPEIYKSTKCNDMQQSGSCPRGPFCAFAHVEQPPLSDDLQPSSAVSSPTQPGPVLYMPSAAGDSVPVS
| Strand | bound/input enrichment |
| --- | --- |
| ACUAAGACCGAGUAUGAACCUGACCGCAAGAAAGGGAAAGCACGUCCUCCCCAAAUUGCUGAGUUCACCGUCAGCAUCACGGAGGGUGUCACCGAGAGGUUUAAGGUCUCCGUGUUGGUC | 0.0571 ratio |
| UUUUUUUUUCCCGGGGUGGGGGGUGUUCUUUGGGGGAAUUUUUUUUUUAAUGGAAGCUUCUAGCAAGCCCUAUGCCCCACCCCAAUCAACCUCUUUGCUUUCUUCUUUAAAAAAAGGAAA | 0.255 ratio |
| ACUGUGGUUUAUGGGCCACCUCCUGCUGGGGCCCCCAUCAUAUACGGACCUCCUCCUGCCAACUUCGCUGUUCCCCUUGUCCCCGCGGGUGUGCAGCAUUGCAACAUCCCAGAGCACCAU | 0.076 ratio |
| UUUCUCUUCCACAUGAAAGUAGUAGUUCAGAUGCAAGCUAAGCUGUUUAAUAAGAUUGUUUUUAGUUUAUGUAAAUACUUGUAAAUUGGUCAGUACCUGUAUUGUACAUUUAAAUAUAAA | 2.22 ratio |
| GGCGGUGGGCGGGGCUCACGCGAGGCGCUGGAACGGUCCGGGAGAUUCUCGCUCUGCUGCUUUAGCUUCGGAGUGUUUGGCGAUGGGGCAGCGCGAGAUGUGGAGGCUCAUGUCGAGGUU | 0.217 ratio |
| UCAGACAUGGACUACAUCCAGACCGACGCCAUCAUCAACUAUGGAAACUCGGGAGGCCCGUUAGUAAACCUGGACGGUGAAGUGAUUGGAAUUAACACUUUGAAAGUGACAGCUGGAAUC | 0.38 ratio |
| UUAAUCAGGGAAGAUUUAGGAUUCAGAUUUAUAUCGGAACAGGUCAGUCACCACCCCCCCAUCAGUGCGUUCCACUCGGAAGGUCUCAACCAUGACUUCCUGUUCCAUGGCUCCAUCUAC | 0.313 ratio |
| UCGAGGCUAGACCAUCAUGGGACAGACACACAGAGACACUUUGCCACAUCUGAUACAGCUGUGAACAAGCUUCUGCCCCAAGUUCUUCAGGGCAGCUGUGAAACCAGCUGGACAAGGGAA | 0.135 ratio |

Study 3 — technique: protein binding microarray; form: double-stranded DNA, one strand shown; matrix: in vitro; concentration: not given; baseline: not given; reading: higher = stronger binding
Target: Histone acetyltransferase KAT6A, winged helix 1, GST fusion (KAT6A, Homo sapiens, UniProt Q92794, residues 1-85)
Setting: 8-mer, flanks averaged, mean of 2 arrays, mostly near background
Residues (chain): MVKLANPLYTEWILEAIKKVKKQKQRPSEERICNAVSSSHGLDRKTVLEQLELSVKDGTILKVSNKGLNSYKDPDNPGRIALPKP
| Strand | E-score |
| --- | --- |
| GGGAACCA | 0.0139 |
| CTCAGAGA | -0.0487 |
| AGTAGCGG | 0.238 |
| CTTTTGTA | -0.186 |
| GAATCTGA | -0.175 |
| CCCTGAGA | -0.225 |
| TCGCGTAA | 0.292 |
| TCATGAGA | -0.0862 |
| AAGCAGCG | 0.0837 |
| AGACGCGG | 0.352 |
| TTCCCGAA | 0.0409 |
| CGAGCGTA | 0.175 |
| CTGGCCAA | -0.195 |
| CCGTTGTC | 0.0961 |
| GCGGAATA | 0.227 |
| ATGATCGA | -0.115 |
| CGCGAGGA | 0.213 |
| ATTGTCGA | -0.212 |

Study 4 — technique: protein-binding microarray; form: double-stranded DNA, one strand shown; matrix: in vitro; concentration: 250 nM; setting: 60-bp whole probe; together with: salmon DNA 0.4 mg/ml; baseline: random background probes; reading: higher = stronger binding; constant ends, left off below: GCCTAGCAC … GTCTTGATTCGCTTGACGCTGCTG
Target: Interferon regulatory factor 7, full length, phosphomimetic (IRF7, Homo sapiens, UniProt Q92985, residues 1-503, S101K/S471D/S472D/S475D/S476D/S477D/S483D/S484D/S487D)
Residues (chain): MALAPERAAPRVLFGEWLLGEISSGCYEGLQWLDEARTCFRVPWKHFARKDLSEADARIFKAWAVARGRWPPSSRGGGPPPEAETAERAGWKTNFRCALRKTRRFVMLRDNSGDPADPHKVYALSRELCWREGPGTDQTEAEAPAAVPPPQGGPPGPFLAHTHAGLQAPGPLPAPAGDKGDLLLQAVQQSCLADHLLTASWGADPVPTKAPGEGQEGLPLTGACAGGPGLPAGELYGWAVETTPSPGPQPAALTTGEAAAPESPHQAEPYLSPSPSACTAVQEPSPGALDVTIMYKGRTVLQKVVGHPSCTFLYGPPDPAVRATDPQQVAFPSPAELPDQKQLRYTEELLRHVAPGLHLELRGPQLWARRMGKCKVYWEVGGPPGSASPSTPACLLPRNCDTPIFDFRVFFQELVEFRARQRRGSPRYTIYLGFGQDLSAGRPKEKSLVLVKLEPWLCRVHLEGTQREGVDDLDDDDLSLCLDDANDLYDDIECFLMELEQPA
| Strand | log fluorescence [z-score] |
| --- | --- |
| TTAGTTTTCAATTTTTGCATGTGCTAG | 0.846 |
| GACGGTATCGACTTTCGGGACGTGCTA | 1.42 |
| GACGATTTCAGTTACGAGACGTGCTAG | 0.499 |
| GACGTACTGGGGACTGGGGACGTGCTA | -0.0205 |
| GACGGTTTCGACACTGGGGCCGTGCTA | 3.66 |
| GACGGGCTCCTTCTCCTGACGTGCTAG | 0.0356 |
| CTAGGTATCGGTATCGGTTAGTGCTAG | 3.3 |
| AGCACTTTGGCATGTCTTGACGTGCTA | -0.858 |
| GACGGTTTCTGGTTTCGGGACGTGCTA | 7.82 |
| TATTTTGGAAACTCACAACAGTGCTAG | 1.79 |
| TCAGGTTTCCAAATTGTACTGTGCTAG | 2.22 |
| TTAAGTATCGGTCTCGGTTAGTGCTAG | 2.57 |
| GACGATTTCAGACTCGAGACGTGCTAG | 0.649 |
| GACGATCTCAGGTTCGAGACGTGCTAG | 0.29 |
| CTATATTAGGGAAGTGTGTTGTGCTAG | 1.21 |
| TTAGGACTGGCTATCGGTTAGTGCTAG | -0.236 |
| TTAGGTCTCCGACTGGGTTAGTGCTAG | -0.38 |
| TTAGGATTCGGTTTCGGTTAGTGCTAG | 12.1 |
| GACGAACTGGGGGTTCGAGACGTGCTA | -0.00615 |

Excerpt of the above (study 4):
| Strand | log fluorescence [z-score] |
| --- | --- |
| TATTTTGGAAACTCACAACAGTGCTAG | 1.79 |
| TCAGGTTTCCAAATTGTACTGTGCTAG | 2.22 |
| TTAAGTATCGGTCTCGGTTAGTGCTAG | 2.57 |
